Measured values pooled from the literature.
Each line is one published result; not all experiments were run side by side. Numbers after ± are the reported error.
U2AF2: U2AF2 148-342 (Homo sapiens, UniProt P26368)
Chain of UniProt P26368 (whole entry, looked up): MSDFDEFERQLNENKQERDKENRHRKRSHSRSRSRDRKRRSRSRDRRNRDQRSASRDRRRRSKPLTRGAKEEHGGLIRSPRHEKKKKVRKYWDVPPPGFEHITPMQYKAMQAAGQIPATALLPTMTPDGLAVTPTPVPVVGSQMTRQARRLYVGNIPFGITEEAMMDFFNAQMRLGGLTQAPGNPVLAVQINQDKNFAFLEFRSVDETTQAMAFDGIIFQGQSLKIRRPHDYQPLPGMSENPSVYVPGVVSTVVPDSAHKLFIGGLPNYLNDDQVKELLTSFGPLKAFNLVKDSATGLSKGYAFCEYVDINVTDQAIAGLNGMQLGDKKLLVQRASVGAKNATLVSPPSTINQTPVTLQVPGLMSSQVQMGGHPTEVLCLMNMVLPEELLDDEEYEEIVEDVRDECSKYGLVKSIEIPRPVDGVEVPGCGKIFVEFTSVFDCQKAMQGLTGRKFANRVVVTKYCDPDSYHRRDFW
B1: human MTHFD1L; sequence looked up; chain SSGGGGGGGGGREGLLGQRRPQDGQARSSCSPGGRTPAARDSIVREVIQNSKEVLSLLQEKNPAFKPVLAIIQAGDDNLMQEINQNLAEEAGLNITHICLPPDSSEAEIIDEILKINEDTRVHGLALQISENLFSNKVLNALKPEKDVDGVTDINLGKLVRGDAHECFVSPVAKAVIELLEKSGVNLDGKKILVVGAHGSLEAALQCLFQRKGSMTMSIQWKTRQLQSKLHEADIVVLGSPKPEEIPLTWIQPGTTVLNCSHDFLSGKVGCGSPRIHFGGLIEEDDVILLAAALRIQNMVSSGRRWLREQQHRRWRLHCLKLQPLSPVPSDIEISRGQTPKAVDVLAKEIGLLADEIEIYGKSKAKVRLSVLERLKDQADGKYVLVAGITPTPLGEGKSTVTIGLVQALTAHLNVNSFACLRQPSQGPTFGVKGGAAGGGYAQVIPMEEFNLHLTGDIHAITAANNLLAAAIDTRILHENTQTDKALYNRLVPLVNGVREFSEIQLARLKKLGINKTDPSTLTEEEVSKFARLDIDPSTITWQRVLDTNDRFLRKITIGQGNTEKGHYRQAQFDIAVASEIMAVLALTDSLADMKARLGRMVVASDKSGQPVTADDLGVTGALTVLMKDAIKPNLMQTLEGTPVFVHAGPFANIAHGNSSVLADKIALKLVGEEGFVVTEAGFGADIGMEKFFNIKCRASGLVPNVVVLVATVRALKMHGGGPSVTAGVPLKKEYTEENIQLVADGCCNLQKQIQITQLFGVPVVVALNVFKTDTRAEIDLVCELAKRAGAFDAVPCYHWSVGGKGSVDLARAVREAASKRSRFQFLYDVQVPIVDKIRTIAQAVYGAKDIELSPEAQAKIDRYTQQGFGNLPICMAKTHLSLSHQPDKKGVPRDFILPISDVRASIGAGFIYPLVGTMSTMPGLPTRPCFYDIDLDTETEQVKGLF
B2: human annexin A1; sequence looked up; chain AMVSEFLKQAWFIENEEQEYVQTVKSSKGGPGSAVSPYPTFNPSSDVAALHKAIMVKGVDEATIIDILTKRNNAQRQQIKAAYLQETGKPLDETLKKALTGHLEEVVLALLKTPAQFDADELRAAMKGLGTDEDTLIEILASRTNKEIRDINRVYREELKRDLAKDITSDTSGDFRNALLSLAKGDRSEDFGVNEDLADSDARALYEAGERRKGTDVNVFNTILTTRSYPQLRRVFQKYTKYSKHDMNKVLDLELKGDIEKCLTAIVKCATSKPAFFAEKLHQAMKGVGTRHKALIRIMVSRSEIDMNDIKAFYQKMYGISLCQAILDETKGDYEKILVALCGGN
Chain of UniProt P13393 (whole entry, looked up): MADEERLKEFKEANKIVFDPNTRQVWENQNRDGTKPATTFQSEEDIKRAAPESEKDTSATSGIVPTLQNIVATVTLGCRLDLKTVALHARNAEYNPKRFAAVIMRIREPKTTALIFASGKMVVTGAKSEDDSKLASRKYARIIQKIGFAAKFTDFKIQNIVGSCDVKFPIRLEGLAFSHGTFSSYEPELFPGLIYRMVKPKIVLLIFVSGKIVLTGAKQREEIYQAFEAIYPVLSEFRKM
Chain of UniProt Q00535 (whole entry, looked up): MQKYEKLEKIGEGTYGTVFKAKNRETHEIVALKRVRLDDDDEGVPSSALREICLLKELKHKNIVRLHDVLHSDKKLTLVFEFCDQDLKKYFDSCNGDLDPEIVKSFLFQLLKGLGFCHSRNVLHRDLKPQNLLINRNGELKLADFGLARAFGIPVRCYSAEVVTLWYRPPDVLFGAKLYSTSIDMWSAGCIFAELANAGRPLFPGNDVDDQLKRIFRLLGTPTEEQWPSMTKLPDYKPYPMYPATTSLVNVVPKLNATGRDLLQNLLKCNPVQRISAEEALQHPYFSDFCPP

Substance	tested on	test	system	setting	scale	endpoint	value
human ME2 E59N	–	enzyme activity, substrate	recombinant enzyme	pH 7.4, added: fumarate 3 mM	–	K0.5	23.3 ± 1.58 mM
durvalumab	–	–	human cancer patients, plasma	intravenous, 1500 mg, cycle 4 day 1, added: adavosertib 150 mg twice daily	–	Ctrough geometric mean	114 µg/mL
human ME2 P78D	–	enzyme activity, substrate	recombinant enzyme	pH 7.4, added: no fumarate	–	K0.5	11.4 ± 0.37 mM
TGCATAAGATTTGGTCCAGTACTCGCAGGAAATGGTCAAGTCAATCGGTCC (dsDNA; 5'-amino-C6 primer)	SPT15 full length assumed (Saccharomyces cerevisiae, UniProt P13393)	array	double-stranded DNA, one strand shown	TBP alone	–	Kd	25.6 ± 1.8 nM
insulin aspart	–	ELISA, measured: total insulin aspart	human, type 1 diabetes, serum	subcutaneous, dose not given, least squares mean	–	Cmax	553 pmol/L
B1 (human MTHFD1L)	PP6C (human)	co-immunoprecipitation, IP-MS	CYB5R4 knockout cells	concentration not given	relative to: CYB5R4 knockout over parental	log2 fold change	-0.43
ACDDQNPWRAYLDLLFPTDTLLLDLLW	–	ex vivo fluorescence imaging	peptide, BALB/c mice, 4T1 tumour-bearing, 4T1 tumour	intravenous, 5 nmol, 48 h post-injection	higher = more uptake	mean fluorescence intensity	1230 ± 282 a.u.
rituximab	–	–	relapsed iNHL patients	dose not given, before third infusion	–	serum concentration	124 mg/L
insulin icodec	–	–	human, severe renal impairment, serum	subcutaneous, 1.5 U/kg single dose, one outlier excluded	relative to: normal renal function	AUC(0-inf) increase	28%
insulin icodec	–	–	Chinese type 2 diabetes patients	subcutaneous, log AUC(tau) vs log dose	–	dose-proportionality slope	0.83
CUUUCUCUU (ssRNA)	U2AF2	sequencing of bound RNA	RNA	motif only	–	Kd	900 nM
ACEEQNPWARYLEWLFPTETLLLEL	–	ex vivo fluorescence imaging	peptide, BALB/c mice, 4T1 tumour-bearing, 4T1 tumour	intravenous, 5 nmol, 2 h post-injection	higher = more uptake	mean fluorescence intensity	3270 ± 690 a.u.
pegcetacoplan	–	measured: investigations	patients with PNH	dose not given, phase Ib trial	–	number of TEAEs	22
Neuropeptide Y	–	RP-HPLC	HALO Peptide ES-C18 column	25 µM, acetic acid/acetonitrile, 10 min gradient	–	retention time	6.06 min
human ME2 R67A	–	enzyme activity, substrate	recombinant enzyme	pH 7.4, added: no fumarate	–	K0.5	0.88 ± 0.13 mM
insulin	–	ELISA	Sprague-Dawley rat, serum	subcutaneous, 5 IU/kg	–	Tmax	1 h
KEAFWDRCLSVINLMASKMLQINA	Cyclin-dependent kinase 5, with p25 (CDK5, Homo sapiens, UniProt Q00535)	phosphotransferase activity, radiometric	peptide	concentration not given, 10% DMSO, added: histone substrate	relative to: p5-WT peptide	activity change	28%
semaglutide	–	–	Wistar rat, male, diet-induced obese, blood, fasted	subcutaneous, dose not given, after 10 weeks treatment	–	serum ALT	26 ± 4 U/L
insulin degludec	–	–	human	subcutaneous, 0.4 IU/kg, 2 FC level, fat content group, single dose, reference formulation	–	Cmax	18.3 ± 3.8 ng/mL
Malic enzyme 2 S106K (human)	–	enzyme activity, substrate	recombinant enzyme	pH 7.4, added: no fumarate	–	K0.5	10.9 ± 0.3 mM
AUUUUUCUU (ssRNA)	U2AF2	sequencing of bound RNA	RNA	motif only	–	Kd	12200 nM
insulin	–	LC-MS/MS	human serum pool	high pool, two freeze-thaw cycles, added: C-peptide 8.70 ng/mL	–	concentration	9.7 ng/mL
adrenomedullin	–	RP-HPLC	HALO RP-amide column	25 µM, formic acid/acetonitrile, 25 min gradient	–	retention time	5.46 min
human ME2 I58F	–	enzyme activity, substrate	recombinant enzyme	pH 7.4, added: fumarate 3 mM	–	K0.5	2.47 ± 0.18 mM
ACEQNPIYWARYADWLFTTPLLLLDLALLVDADEGT	–	ex vivo fluorescence imaging	peptide, BALB/c mice, 4T1 tumour-bearing, muscle	intravenous, 5 nmol, 2 h post-injection	higher = more uptake	mean fluorescence intensity	1060 ± 138 a.u.
insulin icodec	–	–	Japanese patients with type 1 diabetes, serum	geometric mean	–	half-life at steady state	164 h
B2 (human annexin A1)	PP6C (human)	co-immunoprecipitation, IP-MS	CYB5R4 knockout cells	concentration not given	relative to: CYB5R4 knockout over parental	log2 fold change	0.49

For quick reference, copied from above:
Substance	tested on	test	system	setting	scale	endpoint	value
ACDDQNPWRAYLDLLFPTDTLLLDLLW	–	ex vivo fluorescence imaging	peptide, BALB/c mice, 4T1 tumour-bearing, 4T1 tumour	intravenous, 5 nmol, 48 h post-injection	higher = more uptake	mean fluorescence intensity	1230 ± 282 a.u.
insulin	–	ELISA	Sprague-Dawley rat, serum	subcutaneous, 5 IU/kg	–	Tmax	1 h
